Experimental data collected from several papers.
Each line is one published result; not all experiments were run side by side. Numbers after ± are the reported error.
Replicase polyprotein 1ab main protease: Replicase polyprotein 1ab, main protease (Bat coronavirus HKU9, UniProt P0C6W5)
OPG122: mRNA-decapping protein OPG122 (OPG122, Vaccinia virus, UniProt P04312)
rep nsp12 with nsp14/nsp10: Replicase polyprotein 1ab, nsp12 with nsp14/nsp10 (rep, Severe acute respiratory syndrome coronavirus 2, UniProt P0DTD1)
rep papain-like protease: Replicase polyprotein 1ab, papain-like protease (rep, Severe acute respiratory syndrome coronavirus 2, UniProt P0DTD1)

`CC(C)C[C@H](NC(=O)OCc1ccccc1)C(=O)N[C@@H](C[C@@H]1CCNC1=O)C(O)S(=O)(=O)O` (stereo partly drawn) gave an EC50 of 11.1 µM (Replicase polyprotein 1ab main protease; viral replication).
For `C[n+]1cn(C2OC(COP(=O)(O)OP(=O)(O)OP(=O)(O)OCC3OC(n4cnc5c(=O)[nH]c(N)nc54)C(O)C3O)C(O)C2O)c2nc(N)[nH]c(=O)c21` (stereo not drawn), the Ki was 0.28 µM (OPG122; inhibitor).
The IC50 of `O=C(NCCOC(=O)[C@@H]1CCCCN1S(=O)(=O)Cc1ccccc1)c1cccnc1` is reported as 0.42 µM (Peptidyl-prolyl cis-trans isomerase (Burkholderia pseudomallei, UniProt Q63J95); enzyme activity, inhibitor).
The EC50 of `CC(C)C[C@H](NC(=O)OCc1ccccc1)C(=O)N[C@H](C=O)C[C@@H]1CCNC1=O` is reported as greater than 15 µM (Replicase polyprotein 1ab main protease; viral replication).
The IC50 of `CC(C)C[C@@H]1NC(=O)[C@H](CCCNC(=N)N)NC(=O)[C@@H]2CCCN2C(=O)[C@@H]2CSSC[C@H](NC(=O)CNC(=O)[C@@H]3CCCN3C(=O)[C@H](CCCCN)NC(=O)[C@H](CC(=O)O)NC(=O)[C@@H](NC(=O)CN)C(C)C)C(=O)N[C@@H](CCCNC(=N)N)C(=O)N[C@@H](Cc3ccc(O)cc3)C(=O)N[C@@H](CC(C)C)C(=O)N[C@@H](Cc3ccccc3)C(=O)NCC(=O)NCC(=O)N[C@H]3CSSC[C@H](NC(=O)CNC1=O)C(=O)N[C@@H](CCCCN)C(=O)NCC(=O)N[C@@H](CCCCN)C(=O)NCC(=O)N[C@@H](Cc1c[nH]cn1)C(=O)N[C@@H](CC(=O)O)C(=O)N[C@@H](Cc1ccc(O)cc1)C(=O)N[C@H](C(=O)N[C@@H](C)C(=O)N[C@@H](Cc1c[nH]c4ccccc14)C(=O)N[C@@H](CC(=O)O)C(=O)NCC(=O)N[C@H](C(=O)N[C@@H](Cc1ccccc1)C(=O)N[C@@H](CO)C(=O)N[C@@H](CC(=O)O)C(=O)O)[C@@H](C)O)CSSC[C@H](NC(=O)[C@H](CC(=O)O)NC(=O)[C@H](CC(=O)O)NC(=O)[C@H](CC(=O)O)NC(=O)[C@H](CO)NC(=O)[C@H](CCCCN)NC3=O)C(=O)N2` is reported as 0.4 ± 0.01 µM (Potassium voltage-gated channel subfamily B member 1 (KCNB1, Homo sapiens, UniProt Q14721); potassium current, inhibitor, automated patch clamp; tsA201).
`CC(C)C[C@H](NC(=O)[C@H](CC(=O)O)NC(=O)[C@H](Cc1ccc(O)cc1)NC(=O)[C@H](CCCCN)NC(=O)[C@@H]1CSSC[C@@H]2NC(=O)[C@H](CCCCN)NC(=O)[C@H](CC(=O)O)NC(=O)[C@H](CC(N)=O)NC(=O)[C@H](CO)NC(=O)[C@@H]3CCCN3C(=O)[C@H](CC(N)=O)NC(=O)[C@@H]3CSSC[C@H](NC(=O)[C@H](C(C)C)NC(=O)[C@H](CC(C)C)NC(=O)[C@H](CO)NC(=O)[C@H](CO)NC(=O)[C@H](CO)NC(=O)[C@H](CCCCN)NC(=O)[C@H](CSSC[C@H](NC(=O)[C@H](C)N)C(=O)N[C@@H](CC(C)C)C(=O)NCC(=O)N[C@@H](Cc4ccccc4)C(=O)NCC(=O)N[C@@H](CCC(=O)O)C(=O)N[C@@H](CCCCN)C(=O)N3)NC2=O)C(=O)N[C@@H](CO)C(=O)N[C@@H](CCC(N)=O)C(=O)N[C@@H](CCCCN)C(=O)N[C@@H](CCCNC(=N)N)C(=O)N[C@@H](CCCCN)C(=O)N[C@@H](Cc2c[nH]c3ccccc23)C(=O)N1)C(=O)O` gave an IC50 of 14.9 µM (Sodium channel protein type 9 subunit alpha (SCN9A, Homo sapiens, UniProt Q15858); ion current, inhibitor, patch clamp).
With `CCOc1cccc(NC(=O)CSc2cn(C(=O)OC(C)(C)C)c3ccccc23)c1` the EC50 was 1.7 µM (rep nsp12 with nsp14/nsp10; RdRp reporter activity, inhibitor, Gaussia luciferase reporter; HEK293T; 24 h, with: nsp7, nsp8, nsp10, nsp14).
For `CC[C@H](C)[C@H](NC(=O)[C@H](Cc1ccc(O)cc1)NC(=O)[C@H](Cc1c[nH]cn1)NC(=O)[C@@H]1CSSC[C@H](NC(=O)[C@@H]2CCCN2C(=O)[C@H](CCCNC(=N)N)NC(=O)[C@H](CC(C)C)NC(=O)[C@H](CC(=O)O)NC(=O)[C@@H]2CCCN2C(=O)[C@H](CCCCN)NC(=O)CNC(=O)CN)C(=O)N[C@@H](Cc2ccc(O)cc2)C(=O)N2CCC[C@H]2C(=O)N2CCC[C@H]2C(=O)N1)C(=O)N1CCC[C@H]1C(=O)N[C@@H](CCCNC(=N)N)C(=O)N1CCC[C@H]1C(=O)N[C@@H](CCCCN)C(=O)N1CCC[C@H]1C(=O)N[C@@H](CCCNC(=N)N)C(=O)O`, the IC50 was 7.3 ± 0.4 µM (Acetylcholine-binding protein (Lymnaea stagnalis, UniProt P58154); binding, inhibitor; with: α-bungarotoxin).
`O=C(NCc1ccccc1)C(N[C@H]1CCSC1=O)C1CC1` (single isomer, unassigned) has an EC50 of 32.8 ± 0.9 µM (Thiosulfate sulfurtransferase (TST, Homo sapiens, UniProt Q16762); enzyme activity, activator, cyanide to thiocyanate conversion).
For `CCOC(=O)C=CC(CC1CCNC1=O)NC(=O)C(CC(C)C)NC(=O)C(NC(=O)OCc1ccccc1)C(C)OC(C)(C)C` (stereo not drawn), the EC50 was 3.17 µM (Replicase polyprotein 1ab, main protease (rep, Severe acute respiratory syndrome-related coronavirus, UniProt P0C6X7); viral replication).
With `C[n+]1cn(C2OC(COP(=O)(O)OP(=O)(O)OP(=O)(O)O)C(O)C2O)c2nc(N)[nH]c(=O)c21` (stereo not drawn) the Ki was 0.01 µM (OPG122).
For `Cc1ccc(OCCN(C)C)cc1C(=O)N[C@H](C)c1cc(-c2cnn(CCN3CCOCC3)c2)cc(-c2ccn(C)n2)c1`, the EC50 was 14.7 ± 2.5 µM (rep papain-like protease; protease activity, inhibitor, FlipGFP; SARS-CoV-2).
`Nc1ncnc2c1ncn2C1OC(COP(=O)(O)OP(=O)(O)OP(=O)(O)O)C(O)C1F` (stereo not drawn) has a Ki of greater than 0.8 µM (OPG122).
For `COc1ccccc1CNC(=O)CSc1c[nH]c2ccccc12`, the EC50 was 2.52 µM (rep nsp12 with nsp14/nsp10; RdRp reporter activity, inhibitor, Gaussia luciferase reporter; HEK293T; 24 h, with: nsp7, nsp8, nsp10, nsp14).
`Cc1ccc(OCCN(C)C)cc1C(=O)N[C@H](C)c1cc(-c2cnn(C)c2)cc(-c2cnn(C(C)C)c2)c1` has an EC50 of 0.8 ± 0.1 µM (rep papain-like protease; protease activity, inhibitor, FlipGFP; SARS-CoV-2).
The Ki of `O=c1[nH]c(=O)c2ncn(C3OC(COP(=O)(O)OP(=O)(O)OP(=O)(O)O)C(O)C3O)c2[nH]1` (stereo not drawn) is reported as greater than 0.8 µM (OPG122).
For `Cc1ccc(OCCN(C)C)cc1C(=O)N[C@H](C)c1cc(-c2cnn(C)c2)cc(-c2ccn(C)n2)c1`, the EC50 was 2.9 ± 0.3 µM (rep papain-like protease; protease activity, inhibitor, FlipGFP; SARS-CoV-2).
`Nc1nc(S)c2ncn(C3OC(COP(=O)(O)OP(=O)(O)OP(=O)(O)O)C(O)C3O)c2n1` (stereo not drawn) has a Ki of greater than 0.8 µM (OPG122).

Repeated from above:
`O=C(NCc1ccccc1)C(N[C@H]1CCSC1=O)C1CC1` (single isomer, unassigned) has an EC50 of 32.8 ± 0.9 µM (Thiosulfate sulfurtransferase (TST, Homo sapiens, UniProt Q16762); enzyme activity, activator, cyanide to thiocyanate conversion).
For `CCOC(=O)C=CC(CC1CCNC1=O)NC(=O)C(CC(C)C)NC(=O)C(NC(=O)OCc1ccccc1)C(C)OC(C)(C)C` (stereo not drawn), the EC50 was 3.17 µM (Replicase polyprotein 1ab, main protease (rep, Severe acute respiratory syndrome-related coronavirus, UniProt P0C6X7); viral replication).
